Measurements collected from several papers.
Each line is one published result; not all experiments were run side by side.
B1: CCL3 (Macaca mulatta, UniProt Q8HYQ3); chain ADTPTSCCFSYISRQIPQNFIADYFETNSQCSKPGVIFLTKRGRQVCADPSKEWVQKYVSDLELSA
Chain of UniProt Q9JLB5 (whole entry, looked up): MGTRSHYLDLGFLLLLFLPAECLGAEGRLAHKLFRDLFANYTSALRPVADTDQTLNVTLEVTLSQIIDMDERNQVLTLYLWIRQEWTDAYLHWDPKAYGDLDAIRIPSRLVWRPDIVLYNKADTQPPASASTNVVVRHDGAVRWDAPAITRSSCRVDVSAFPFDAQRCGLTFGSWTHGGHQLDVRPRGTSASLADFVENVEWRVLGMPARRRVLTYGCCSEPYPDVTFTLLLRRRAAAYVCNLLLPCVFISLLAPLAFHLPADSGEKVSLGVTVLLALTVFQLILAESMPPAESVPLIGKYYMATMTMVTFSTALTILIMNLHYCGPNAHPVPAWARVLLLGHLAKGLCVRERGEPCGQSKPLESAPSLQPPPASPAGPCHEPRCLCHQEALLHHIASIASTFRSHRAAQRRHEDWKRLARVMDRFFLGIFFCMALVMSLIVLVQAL
Chain of UniProt P43144 (whole entry, looked up): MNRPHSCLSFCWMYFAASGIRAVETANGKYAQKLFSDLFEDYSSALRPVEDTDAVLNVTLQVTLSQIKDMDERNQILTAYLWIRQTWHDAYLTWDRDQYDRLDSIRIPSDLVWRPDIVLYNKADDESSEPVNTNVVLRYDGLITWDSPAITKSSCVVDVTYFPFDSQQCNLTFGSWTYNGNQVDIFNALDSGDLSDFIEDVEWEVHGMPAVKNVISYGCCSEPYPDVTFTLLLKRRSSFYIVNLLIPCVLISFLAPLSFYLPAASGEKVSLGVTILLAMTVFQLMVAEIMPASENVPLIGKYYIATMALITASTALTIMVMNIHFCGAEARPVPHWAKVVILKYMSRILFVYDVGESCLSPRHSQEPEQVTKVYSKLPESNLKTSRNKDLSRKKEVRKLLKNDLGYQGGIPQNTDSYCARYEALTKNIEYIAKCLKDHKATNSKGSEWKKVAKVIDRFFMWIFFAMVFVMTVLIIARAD
Chain of UniProt P23979 (whole entry, looked up): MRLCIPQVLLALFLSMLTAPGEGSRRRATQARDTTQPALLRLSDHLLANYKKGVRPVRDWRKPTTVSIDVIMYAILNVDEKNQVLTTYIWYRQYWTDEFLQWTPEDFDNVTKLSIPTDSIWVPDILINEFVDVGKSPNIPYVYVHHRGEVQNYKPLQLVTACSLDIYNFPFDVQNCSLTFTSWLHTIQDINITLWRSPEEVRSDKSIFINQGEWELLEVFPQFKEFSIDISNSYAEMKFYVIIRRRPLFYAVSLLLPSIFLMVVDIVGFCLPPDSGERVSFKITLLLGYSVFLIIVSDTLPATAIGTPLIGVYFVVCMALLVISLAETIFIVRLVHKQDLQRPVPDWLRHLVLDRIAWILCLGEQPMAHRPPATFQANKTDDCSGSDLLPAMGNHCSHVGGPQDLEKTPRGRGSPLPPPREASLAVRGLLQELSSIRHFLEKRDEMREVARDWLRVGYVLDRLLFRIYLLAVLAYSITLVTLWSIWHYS

| Substance | tested on | read-out | mode | technique | measurement | result |
| --- | --- | --- | --- | --- | --- | --- |
| HA ectodomain trimer, cleaved (Influenza A virus) | itself | – | – | X-ray crystallography | subunits per oligomer | 3 |
| CC[C@H](C)[C@@H]1NC(=O)[C@H](CC(N)=O)NC(=O)[C@H](Cc2ccc(O)cc2)NC(=O)[C@H]([C@@H](C)O)NC(=O)[C@@H]2CSSC[C@@H]3NC(=O)[C@H](CC(N)=O)NC(=O)[C@H](Cc4ccc(O)cc4)NC(=O)[C@H](C(C)C)NC(=O)CNC(=O)[C@H]([C@@H](C)O)NC(=O)CNC(=O)[C@H](CCCCN)NC(=O)[C@@H]4CSSC[C@H](NC(=O)[C@H](CO)NC(=O)[C@H](CC(C(=O)O)C(=O)O)NC(=O)CNC3=O)C(=O)N[C@@H](CO)C(=O)N[C@H]3CSSC[C@H](NC(=O)CNC(=O)[C@H](CO)NC(=O)[C@H](CCCCN)NC(=O)[C@H](CCSC)NC(=O)[C@H](CO)NC(=O)CNC1=O)C(=O)N[C@@H](C)C(=O)N[C@@H](CSSC[C@H](NC(=O)[C@H](CO)NC(=O)[C@H](Cc1c[nH]cn1)NC(=O)[C@H](CC(C)C)NC(=O)CNC(=O)[C@H](CC(C(=O)O)C(=O)O)NC3=O)C(=O)N[C@@H](CCCNC(=N)N)C(=O)N2)C(=O)N[C@@H]([C@@H](C)CC)C(=O)N[C@H](C(=O)N[C@H](C(=O)N[C@@H](Cc1ccc(O)cc1)C(=O)N[C@@H](Cc1ccc(O)cc1)C(=O)O)[C@@H](C)O)CSSC[C@H](NC(=O)[C@@H](N)CCCCN)C(=O)N[C@@H](CC(N)=O)C(=O)N[C@@H](Cc1ccccc1)C(=O)N[C@@H](CC(=O)O)C(=O)N[C@@H](CCCCN)C(=O)N4 | Nicotinic acetylcholine receptor alpha9/alpha10 (Rattus norvegicus, UniProt P43144+Q9JLB5) | – | – | – | Hill slope | 1.9 |
| ohr (Burkholderia pseudomallei, UniProt Q3JK82) | itself | – | – | SEC | subunits per oligomer | 2 |
| GP Gc glycoprotein (Andes virus) | itself | – | – | cryo-EM | subunits per oligomer | 2 |
| B1 (CCL3) | vCCI | – | – | native gel | molecule per partner | 1 |
| Gn/Gc heterodimer (Rift Valley fever virus) | itself | – | – | cryo-EM | subunits per oligomer | 6 |
| GP Gn glycoprotein (Andes virus) | itself | – | – | cryo-EM | subunits per oligomer | 4 |
| CC(C)[C@@H]1NC(=O)[C@H](CC(N)=O)NC(=O)[C@H](Cc2ccc(O)cc2)NC(=O)[C@H](CCCNC(=N)N)NC(=O)[C@@H]2CSSC[C@@H]3NC(=O)[C@H](CCCCN)NC(=O)[C@@H]4CCCN4C(=O)CNC(=O)CNC(=O)[C@@H]4CSSC[C@H](NC(=O)[C@H]([C@@H](C)O)NC(=O)CNC(=O)[C@H]([C@@H](C)O)NC3=O)C(=O)N[C@@H]([C@@H](C)O)C(=O)N[C@H]3CSSC[C@H](NC(=O)CNC(=O)[C@H](Cc5c[nH]c6cc(Br)ccc56)NC(=O)CNC(=O)[C@H](CO)NC(=O)[C@@H]5CCCN5C(=O)[C@H](Cc5c[nH]cn5)NC1=O)C(=O)NCC(=O)N[C@@H](CSSC[C@H](NC(=O)[C@H](CCCCN)NC(=O)[C@H](CO)NC(=O)[C@H](CO)NC(=O)[C@H](CC(N)=O)NC(=O)[C@H]([C@@H](C)O)NC3=O)C(=O)NCC(=O)N2)C(=O)N[C@@H](C)C(=O)N[C@H](C(=O)N[C@@H](CO)C(N)=O)CSSC[C@H](NC(=O)CN)C(=O)N[C@@H]([C@@H](C)O)C(=O)N[C@@H](CCCNC(=N)N)C(=O)N[C@@H]([C@@H](C)O)C(=O)N4 | 5-hydroxytryptamine receptor 3A (Htr3a, Mus musculus, UniProt P23979) | receptor response | antagonist | – | Hill slope | 1 |

A few entries again:
| Substance | tested on | read-out | mode | technique | measurement | result |
| --- | --- | --- | --- | --- | --- | --- |
| CC(C)[C@@H]1NC(=O)[C@H](CC(N)=O)NC(=O)[C@H](Cc2ccc(O)cc2)NC(=O)[C@H](CCCNC(=N)N)NC(=O)[C@@H]2CSSC[C@@H]3NC(=O)[C@H](CCCCN)NC(=O)[C@@H]4CCCN4C(=O)CNC(=O)CNC(=O)[C@@H]4CSSC[C@H](NC(=O)[C@H]([C@@H](C)O)NC(=O)CNC(=O)[C@H]([C@@H](C)O)NC3=O)C(=O)N[C@@H]([C@@H](C)O)C(=O)N[C@H]3CSSC[C@H](NC(=O)CNC(=O)[C@H](Cc5c[nH]c6cc(Br)ccc56)NC(=O)CNC(=O)[C@H](CO)NC(=O)[C@@H]5CCCN5C(=O)[C@H](Cc5c[nH]cn5)NC1=O)C(=O)NCC(=O)N[C@@H](CSSC[C@H](NC(=O)[C@H](CCCCN)NC(=O)[C@H](CO)NC(=O)[C@H](CO)NC(=O)[C@H](CC(N)=O)NC(=O)[C@H]([C@@H](C)O)NC3=O)C(=O)NCC(=O)N2)C(=O)N[C@@H](C)C(=O)N[C@H](C(=O)N[C@@H](CO)C(N)=O)CSSC[C@H](NC(=O)CN)C(=O)N[C@@H]([C@@H](C)O)C(=O)N[C@@H](CCCNC(=N)N)C(=O)N[C@@H]([C@@H](C)O)C(=O)N4 | 5-hydroxytryptamine receptor 3A (Htr3a, Mus musculus, UniProt P23979) | receptor response | antagonist | – | Hill slope | 1 |
